Results pooled from the literature.
Compare with care: the assays were run in different laboratories. ± marks the error that the study gave.
Target: Receptor tyrosine-protein kinase erbB-4 (ERBB4, Homo sapiens, UniProt Q15303)
UniProt Q15303, sequence (whole entry, looked up): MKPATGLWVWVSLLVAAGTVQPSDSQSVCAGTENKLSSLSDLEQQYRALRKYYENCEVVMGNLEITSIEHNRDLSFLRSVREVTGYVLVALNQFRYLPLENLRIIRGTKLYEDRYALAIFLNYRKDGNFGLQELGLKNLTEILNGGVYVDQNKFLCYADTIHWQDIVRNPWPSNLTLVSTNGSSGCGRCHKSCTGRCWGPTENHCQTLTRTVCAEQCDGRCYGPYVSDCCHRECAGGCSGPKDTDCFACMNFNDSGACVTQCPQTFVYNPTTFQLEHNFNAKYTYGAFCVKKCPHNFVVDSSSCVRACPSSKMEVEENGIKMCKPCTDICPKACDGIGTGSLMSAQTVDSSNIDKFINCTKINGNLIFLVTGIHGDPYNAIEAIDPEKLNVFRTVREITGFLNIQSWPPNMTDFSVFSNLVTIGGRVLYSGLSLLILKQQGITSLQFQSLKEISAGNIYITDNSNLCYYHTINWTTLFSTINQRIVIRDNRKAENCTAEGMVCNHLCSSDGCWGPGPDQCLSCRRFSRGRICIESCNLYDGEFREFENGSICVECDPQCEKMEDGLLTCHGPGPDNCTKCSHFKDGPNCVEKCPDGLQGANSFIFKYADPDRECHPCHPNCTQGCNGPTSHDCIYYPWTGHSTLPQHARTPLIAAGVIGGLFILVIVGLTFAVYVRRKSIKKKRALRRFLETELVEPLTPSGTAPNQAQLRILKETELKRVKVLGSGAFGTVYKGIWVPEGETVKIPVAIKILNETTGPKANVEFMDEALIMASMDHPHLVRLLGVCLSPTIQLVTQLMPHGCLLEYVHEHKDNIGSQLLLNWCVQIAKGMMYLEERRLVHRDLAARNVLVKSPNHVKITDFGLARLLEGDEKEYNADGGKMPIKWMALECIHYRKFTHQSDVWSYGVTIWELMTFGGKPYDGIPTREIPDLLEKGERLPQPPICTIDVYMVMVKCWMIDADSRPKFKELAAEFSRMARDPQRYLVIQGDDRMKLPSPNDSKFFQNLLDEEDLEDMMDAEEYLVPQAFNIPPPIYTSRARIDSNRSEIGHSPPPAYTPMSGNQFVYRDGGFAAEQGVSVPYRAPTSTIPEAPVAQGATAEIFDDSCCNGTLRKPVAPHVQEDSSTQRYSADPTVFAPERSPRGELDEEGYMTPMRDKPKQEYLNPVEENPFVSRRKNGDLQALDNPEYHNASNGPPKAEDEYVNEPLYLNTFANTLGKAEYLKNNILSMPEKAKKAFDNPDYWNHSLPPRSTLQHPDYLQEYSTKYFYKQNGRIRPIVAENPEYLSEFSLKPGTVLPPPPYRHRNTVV

Structure (SMILES) | assay | conditions | how to read | endpoint | value
C=CC(=O)N1CCC(COCC(=O)N2CCN(c3nc(-c4cnc(N)nc4C(F)F)nc(N4CCOC[C@@H]4C)n3)CC2)CC1 | KINOMEscan | 1 µM |  | remaining binding | 100%
COc1cc(F)ccc1-c1ncnc(Nc2cccc(C[S@](C)(=N)=O)c2)n1 | kinase activity | 10 µM, added: 10 µM ATP |  | remaining activity | 93%
c1cnc2ccc(Nc3nc(NC4CC4)c4nc[nH]c4n3)cc2c1 | kinase activity, inhibitor, SelectScreen kinase profiling | 1 µM | relative to: control | remaining activity | 72%
O=C1NC(=O)/C(=C/c2ccc(-c3ccc(F)cc3O)o2)S1 | enzyme activity | 10 µM |  | remaining activity | 68%
CC#CC(=O)N1CCC[C@H]1c1nc(-c2ccc(C(=O)Nc3ccccn3)cc2)c2c(N)nccn12 | kinase activity, inhibitor, HotSpot radiometric | 100 nM, added: ATP 10 µM |  | remaining activity | 17.7 ± 0.6%
[2H]c1cc(C)c(NC(=O)c2cnc(Nc3cc(N4CCCCC4)nc(C)n3)s2)c(Cl)c1 |  | 0.01 µM |  | inhibition | < 30%
COc1ccc(F)cc1C(=O)NCc1ccc(-c2nn([C@@H](C)C(F)(F)F)c(N)c2C(N)=O)cc1 | kinase activity, inhibitor, HotSpot radiometric | 100 nM, added: ATP 10 µM |  | remaining activity | 43%
C=CC(=O)N1CCC[C@@H](n2nc(-c3ccc(Oc4ccccc4)cc3)c3c(N)ncnc32)C1 |  | 0.1 µM |  | remaining activity | 67.1%
Cc1cc(Nc2cc(N3CCN(C)CC3)nc(Sc3ccc(NC(=O)C4CC4)cc3)n2)[nH]n1 | kinase activity, KinaseProfiler | 0.03 µM, species human | relative to: control | remaining activity | 97%
COc1cc(-c2cncc3c2CN(C)Cc2cc(N4CCNCC4)ccc2-3)cc(OC)c1OC | kinase activity | 1 µM, human enzyme, added: ATP 10 µM | relative to: DMSO control | remaining activity | 112%
C=CC(=O)N1CCC([C@@H]2CCNc3c(C(N)=O)c(-c4ccc(Oc5ccccc5)cc4)nn32)CC1 | kinase activity, inhibitor, HotSpot radiometric | 100 nM, added: ATP 10 µM |  | remaining activity | 0.1 ± 0.1%
